{"data": "Results of several laboratories", "note": "Compare with care: the assays were run in different laboratories. ± gives the spread as reported.", "sequence of UniProt O60656 (whole entry, looked up)": "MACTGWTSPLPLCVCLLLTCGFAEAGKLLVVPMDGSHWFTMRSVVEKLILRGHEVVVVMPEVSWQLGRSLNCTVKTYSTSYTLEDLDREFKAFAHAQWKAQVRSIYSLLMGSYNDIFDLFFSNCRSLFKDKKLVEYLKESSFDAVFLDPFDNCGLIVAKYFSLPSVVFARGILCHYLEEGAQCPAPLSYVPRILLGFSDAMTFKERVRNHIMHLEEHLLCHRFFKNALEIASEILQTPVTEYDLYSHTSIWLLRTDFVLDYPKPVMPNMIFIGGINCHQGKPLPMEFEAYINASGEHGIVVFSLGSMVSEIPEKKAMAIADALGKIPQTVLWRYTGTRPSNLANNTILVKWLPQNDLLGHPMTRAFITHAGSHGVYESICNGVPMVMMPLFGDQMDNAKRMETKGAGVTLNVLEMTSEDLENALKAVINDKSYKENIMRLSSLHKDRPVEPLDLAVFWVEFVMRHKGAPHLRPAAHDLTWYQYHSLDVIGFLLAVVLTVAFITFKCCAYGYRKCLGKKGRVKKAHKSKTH"}
{"Molecule": "CC(C)[C@H](NC(=O)[C@@H]1CCCN1C(=O)[C@H](CCCNC(=N)N)NC(=O)[C@H](CS)NC(=O)[C@H](Cc1c[nH]c2ccccc12)NC(=O)[C@H](CCCNC(=N)N)NC(=O)[C@@H](Cc1ccccc1)NC(=O)[C@H](Cc1c[nH]cn1)NC(=O)[C@H](CCC(=O)O)NC(=O)[C@H](CS)NC(=O)[C@H](CS)NC(=O)[C@H](CCCCN)NC(=O)[C@@H]1CC(=O)N[C@@H](CCCNC(=N)N)C(=O)N[C@@H](C)C(=O)N[C@@H](CC(=O)O)C(=O)N[C@H](Cc2ccc(O)cc2)C(=O)N1)C(N)=O [technetium-99m labelled]", "system": "C57 mice, brain", "conditions": "intravenous, 0.037 MBq, 4 h", "measurement": "tissue uptake", "value": "0.02 %ID/g"}
{"Molecule": "rnpA F107W (Bacillus subtilis)", "test": "NMR, item: His3", "conditions": "25 °C, 1.00 M NaCl, folded, sulfate-bound, together with: sulfate 20 mM", "measurement": "pKa", "value": 6.23}
{"Molecule": "UGT1A9 (Homo sapiens, UniProt O60656)", "tested on": "Oc1ccc2c(c1)OC[C@H]1c3cc4c(cc3O[C@@H]21)OCO4", "test": "steady-state kinetics", "conditions": "pH 7.4, 37 °C", "measurement": "Vmax/Km", "value": "75 µL/min/mg"}
{"Molecule": "CSCC[C@H](NC(=O)[C@H](CC(C)C)NC(=O)[C@H](Cc1c[nH]cn1)NC(=O)CNC(=O)[C@@H](NC(=O)[C@H](C)NC(=O)[C@H](Cc1c[nH]c2ccccc12)NC(=O)[C@H](CCC(N)=O)NC(=O)CCCCCNC(=O)[C@H](CCC(=O)NCCCC[C@@H]1NC(=O)[C@@H](Cc2ccc(O)cc2)NC(=O)[C@H](CC(=O)O)NC(=O)CNC(=O)[C@H](CCCNC(=N)N)NC1=O)NC(=O)CN1CCN(CC(=O)O)CCN(CC(=O)O)CC1)C(C)C)C(N)=O [copper-64 labelled]", "system": "ICR SCID mouse, female, stomach", "conditions": "intravenous, 750 kBq, 1 h", "measurement": "tissue uptake", "value": "1.43 ± 1.16 %ID/g"}
{"Molecule": "insulin degludec", "system": "human, severe hepatic impairment, serum", "conditions": "subcutaneous, 0.4 U/kg single dose", "measurement": "AUC(0-120 h)", "value": "0.0798 µM·h"}
{"Molecule": "insulin", "test": "item: plasma glucose", "system": "rat, streptozotocin-induced diabetes", "conditions": "oral, 20 IU/kg", "how to read": "baseline: subcutaneous dose 1 IU/kg", "measurement": "relative bioavailability", "value": "< 0.5%"}
{"Molecule": "CC(C)[C@H](NC(=O)[C@@H]1CCCN1C(=O)[C@H](CCCNC(=N)N)NC(=O)[C@H](CS)NC(=O)[C@H](Cc1c[nH]c2ccccc12)NC(=O)[C@H](CCCNC(=N)N)NC(=O)[C@@H](Cc1ccccc1)NC(=O)[C@H](Cc1c[nH]cn1)NC(=O)[C@H](CCC(=O)O)NC(=O)[C@H](CS)NC(=O)[C@H](CS)NC(=O)[C@H](CCCNC(=N)N)NC(=O)[C@@H]1CC(=O)N[C@@H](CCCNC(=N)N)C(=O)N[C@@H](C)C(=O)N[C@@H](CC(=O)O)C(=O)N[C@H](Cc2ccc(O)cc2)C(=O)N1)C(N)=O [technetium-99m labelled]", "system": "C57 mouse, intestine", "conditions": "intravenous, 0.037 MBq, 4 h", "measurement": "tissue uptake", "value": "2.24 ± 1.08 %ID"}
{"Molecule": "COc1cccc2c1C(=O)c1c(O)c3c(c(O)c1C2=O)C[C@@](O)(C(=O)CO)C[C@@H]3O[C@H]1C[C@H](NC(=O)[C@@H]2CCCN2C(=O)CN)[C@H](O)[C@H](C)O1", "system": "mouse, E0771 tumour-bearing, tumor", "conditions": "intravenous, 92 µmol/kg PhAc-ALGP-Dox", "measurement": "terminal half-life", "value": "10 h"}
{"Molecule": "insulin degludec", "test": "insulin degludec-specific ELISA", "system": "healthy human subjects, serum", "conditions": "subcutaneous, thigh, 0.4 U/kg", "measurement": "AUC(0-120 h)", "value": "0.0767 µM·h"}
{"Molecule": "Insulin human", "test": "ELISA", "system": "rat, ventral cortex", "conditions": "intranasal, 20 µg per nostril, 15 min", "measurement": "concentration", "value": "0 pg/mg tissue"}
